Results gathered from unrelated publications.
Each line is one published result; not all experiments were run side by side.
Organism: Pseudomonas aeruginosa

CN[C@@H]1[C@H](O)[C@H](NC)[C@H]2O[C@]3(O)[C@H](O[C@@H]2[C@H]1O)O[C@H](C)C[C@H]3NC(=O)CNC(C)(C)C — MIC (microbial growth, broth dilution; PAO1): 200 µg/mL
CC(C)C[C@@H]1NC(=O)[C@@H](CC(C)C)NC(=O)[C@H](CCN)NC(=O)[C@@H](NC(=O)[C@H](CCN)NC(=O)[C@@H](NC(=O)CCCCN=[N+]=[N-])[C@@H](C)O)CCNC(=O)[C@H]([C@@H](C)O)NC(=O)[C@H](CCN)NC(=O)[C@H](CCN)NC1=O — MIC (broth microdilution; ATCC 25922, cation-adjusted Mueller-Hinton broth): 8 µM
CC(C)C[C@H](NC(=O)[C@@H](NC(=O)[C@H](CCCNC(=N)N)NC(=O)[C@H](CCC(N)=O)NC(=O)[C@H](Cc1ccccc1)NC(=O)[C@H](Cc1ccc(O)cc1)NC(=O)[C@H](CC(N)=O)NC(=O)[C@H](Cc1c[nH]c2ccccc12)NC(=O)[C@@H](NC(=O)[C@H](CCCNC(=N)N)NC(=O)[C@H](CCCCN)NC(=O)[C@@H](N)Cc1ccccc1)C(C)C)C(C)C)C(=O)N[C@H](C(=O)N[C@@H](CCCCN)C(=O)N[C@@H](CCCCN)C(=O)N[C@@H](Cc1ccc(O)cc1)C(N)=O)C(C)C — MIC (broth dilution; ATCC 27853): > 100 µM
CN[C@H](CC(C)C)C(=O)N[C@H]1C(=O)N[C@@H](CC(N)=O)C(=O)N[C@H]2C(=O)N[C@H]3C(=O)N[C@H](C(=O)N[C@H](C(=O)NCC(N)=O)c4cc(O)cc(O)c4-c4cc3ccc4O)[C@H](O)c3ccc(c(Cl)c3)Oc3cc2cc(c3O[C@@H]2O[C@H](CO)[C@@H](O)[C@H](O)[C@H]2O[C@H]2C[C@](C)(NCc3ccc(OCc4cn(CC(=O)N[C@H](C(=O)N[C@@H](CCN)C(=O)N[C@H]5CCNC(=O)[C@H]([C@@H](C)O)NC(=O)[C@H](CCN)NC(=O)[C@H](CCN)NC(=O)[C@H](CC(C)C)NC(=O)[C@@H](CC(C)C)NC(=O)[C@H](CCN)NC5=O)[C@@H](C)O)nn4)c(OC)c3)[C@H](O)[C@H](C)O2)Oc2ccc(cc2Cl)[C@H]1O — MIC (broth microdilution; ATCC 27853, cation-adjusted Mueller-Hinton broth): 6 µM
CC(=O)N[C@@H](CC(C)C)C(=O)N[C@H]1CSSC[C@@H](C(=O)N2CCC[C@H]2C(N)=O)NC(=O)[C@H]([C@@H](C)O)NC(=O)[C@H](C(C)C)NC(=O)[C@H]([C@@H](C)O)NC(=O)CNC(=O)[C@H](CCCCN)NC(=O)[C@H](Cc2ccccc2)NC(=O)[C@H](Cc2ccc(O)cc2)NC(=O)[C@H](CCCCN)NC(=O)[C@H](CCC(=O)O)NC(=O)[C@H](Cc2ccccc2)NC(=O)[C@H](CCCNC(=N)N)NC(=O)[C@H](CCCCN)NC(=O)[C@H](CC(C)C)NC(=O)[C@H](CC(=O)O)NC(=O)[C@@H]2CCCN2C(=O)[C@H](CCCCN)NC(=O)[C@H](C(C)C)NC(=O)[C@H](CCCCN)NC(=O)[C@H](CCCCN)NC(=O)[C@H]([C@@H](C)O)NC1=O — MIC (broth dilution; CGMCC strain; 24 h): > 40 µM
CCCCCCCC(=O)N[C@@H](CCN)C(=O)N[C@H](C(=O)N[C@@H](CCN)C(=O)N[C@H]1CCNC(=O)[C@H]([C@@H](C)O)NC(=O)[C@H](CCN)NC(=O)[C@H](CCN)NC(=O)[C@H](Cc2ccc(F)cc2)NC(=O)[C@@H](CC(C)C)NC(=O)[C@H](CCN)NC1=O)[C@@H](C)O — MIC (broth microdilution; PAO1, colistin-susceptible): 0.125 to 0.25 µg/mL
CC[C@H](C)[C@H](NC(=O)[C@@H](CCCNC(=N)N)NC(=O)[C@H](CCCNC(=N)N)NC(=O)[C@@H]1CCCN1C(=O)[C@@H]1CCCN1C(=O)[C@H](CCCNC(=N)N)NC(=O)[C@@H]1CCCN1C(=O)[C@H](CCCNC(=N)N)NC(=O)[C@@H]1CCCN1C(=O)[C@H](CC(C)C)NC(=O)[C@H](Cc1ccc(O)cc1)NC(=O)[C@H](Cc1ccc(O)cc1)NC(=O)[C@@H]1CCCN1C(=O)[C@H](CCCCN)NC(=O)[C@H](CC(=O)O)NC(=O)[C@@H](N)C(C)C)C(=O)N[C@@H](Cc1ccc(O)cc1)C(=O)N[C@@H](CC(N)=O)C(=O)N[C@H](CCCNC(=N)N)C(N)=O — MIC (broth microdilution; DSM 1117; 18 h, 37 °C, 25% MHB2): 128 µg/mL
CC[C@H](C)[C@H](NC(=O)[C@H](CC(C)C)NC(=O)[C@H](CCCNC(=N)N)NC(=O)CNC(=O)CNC(=O)[C@H](CCCCN)NC(=O)[C@H](CCCNC(=N)N)NC(=O)[C@H](CC(C)C)NC(=O)[C@H](CC(C)C)NC(=O)[C@H](CCCNC(=N)N)NC(=O)[C@@H](NC(=O)[C@H](CC(C)C)NC(=O)[C@@H](N)CO)[C@@H](C)O)C(=O)NCC(=O)N[C@@H](Cc1c[nH]c2ccccc12)C(=O)N[C@@H](CCCNC(=N)N)C(=O)N[C@@H](Cc1c[nH]c2ccccc12)C(=O)N[C@@H](CCC(=O)O)C(=O)N[C@@H](CCCCN)C(=O)N[C@H](C(=O)N[C@@H](CCCNC(=N)N)C(=O)N[C@@H](CC(N)=O)C(=O)N[C@@H](Cc1c[nH]c2ccccc12)C(=O)N[C@H](C(=O)N[C@@H](CCCNC(=N)N)C(=O)N[C@@H](CCCNC(=N)N)C(=O)N[C@H](C(=O)N[C@H](C(=O)N[C@@H](CCC(=O)O)C(=O)N[C@@H](CCCCN)C(=O)N[C@@H](CCCNC(=N)N)C(=O)N[C@@H](CCCCN)C(=O)N1CCC[C@H]1C(=O)N[C@@H](CC(N)=O)C(=O)N[C@@H](CCCCN)C(=O)O)[C@@H](C)CC)[C@@H](C)CC)[C@@H](C)CC)[C@@H](C)O — MIC (broth microdilution; ATCC 27853, Mueller-Hinton broth; 16 to 20 h, 37 °C): 8.79 µg/mL
CC(=O)N[C@H](Cc1cccc(F)c1)C(=O)N[C@@H](CCN)C(=O)N[C@H](C(=O)N[C@@H](CCN)C(=O)N[C@H]1CCNC(=O)[C@H]([C@@H](C)O)NC(=O)[C@H](CCN)NC(=O)[C@H](CCN)NC(=O)[C@H](CC(C)C)NC(=O)[C@@H](Cc2ccccc2)NC(=O)[C@H](CCN)NC1=O)[C@@H](C)O — MIC (broth microdilution; PAO1, colistin-susceptible): 0.25 to 0.5 µg/mL

A few entries again:
CC(=O)N[C@H](Cc1cccc(F)c1)C(=O)N[C@@H](CCN)C(=O)N[C@H](C(=O)N[C@@H](CCN)C(=O)N[C@H]1CCNC(=O)[C@H]([C@@H](C)O)NC(=O)[C@H](CCN)NC(=O)[C@H](CCN)NC(=O)[C@H](CC(C)C)NC(=O)[C@@H](Cc2ccccc2)NC(=O)[C@H](CCN)NC1=O)[C@@H](C)O — MIC (broth microdilution; PAO1, colistin-susceptible): 0.25 to 0.5 µg/mL
